Measurements from different studies.
A part holds a random share of what one study measured. Substitutions count along the parent as printed.

Series 1
Target: CCND1, cyclin fold, Cln2 fusion (human)
Method: yeast growth competition, sequencing
Sample: yeast
Setting: strong parent motif
Baseline: not given
Reading: higher = stronger binding
Parent: PKN2 docking peptide (human); VSAVRKLDFSDTM; partner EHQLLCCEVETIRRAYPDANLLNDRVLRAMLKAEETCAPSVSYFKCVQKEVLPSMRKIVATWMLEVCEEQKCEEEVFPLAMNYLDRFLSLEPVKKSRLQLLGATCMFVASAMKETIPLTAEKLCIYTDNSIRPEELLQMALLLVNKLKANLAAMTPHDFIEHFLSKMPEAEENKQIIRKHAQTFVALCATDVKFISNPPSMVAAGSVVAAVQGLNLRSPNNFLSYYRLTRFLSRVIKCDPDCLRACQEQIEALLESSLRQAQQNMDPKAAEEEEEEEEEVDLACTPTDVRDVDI
Change | normalised enrichment score
VSAVRKLDFWDTM [S10W] | 2.65
VSAVRKLDTSDTM [F9T] | 0.0327
VSAVRKLDFSDVM [T12V] | 5.14
VKAVRKLDFSDTM [S2K] | 4.83
VSAVFKLDFSDTM [R5F] | 0.953
VSAVEKLDFSDTM [R5E] | 0.809
VSAVRKLDFSDKM [T12K] | 5.8
VSAVRKRDFSDTM [L7R] | -0.285
VSAVCKLDFSDTM [R5C] | 3.26
VSAVRKLDFDDTM [S10D] | 5.17
VSAVRKLEFSDTM [D8E] | 4.09
VSAVRKPDFSDTM [L7P] | -0.139

Series 2
Target: Centromere-binding protein 1, full length, His-tagged (CBF1, Saccharomyces cerevisiae, UniProt P17106, residues 1-351)
UniProt P17106, sequence (whole entry, looked up): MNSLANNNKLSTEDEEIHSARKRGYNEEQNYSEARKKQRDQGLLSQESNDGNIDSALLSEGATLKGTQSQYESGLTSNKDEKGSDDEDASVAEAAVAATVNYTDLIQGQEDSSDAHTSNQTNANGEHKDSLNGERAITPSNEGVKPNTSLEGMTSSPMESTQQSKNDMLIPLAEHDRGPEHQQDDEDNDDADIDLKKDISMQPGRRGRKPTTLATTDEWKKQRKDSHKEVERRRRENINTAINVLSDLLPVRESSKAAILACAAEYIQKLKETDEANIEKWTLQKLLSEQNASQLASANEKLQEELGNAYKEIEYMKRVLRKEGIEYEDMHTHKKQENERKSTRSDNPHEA
Method: competition protein-binding microarray
Form: double-stranded DNA, one strand shown
Sample: in vitro
Concentration: 2 µM
Setting: whole 60-bp probe, lowest competitor level
With: Pho4 competitor, 0.05 µM
Reading: higher = stronger binding
Shared flanks, not repeated: … GTCTTGATTCGCTTGACGCTGCTG
Sequence | fluorescence intensity
CCGACGAAACCGTTCCACGTGTGTTCGACTTGAAAA | 469 a.u.
GTCTTGTCTCATTGGCACGTGGGTGTCCCCACTTCA | 1030 a.u.
AAGACATATAATCAAAACGTGAGATTCCTGTGGAAA | 140 a.u.
CTCTATCTTGTACGCAACGTGTGGAGCTTTATTCTA | 83.8 a.u.
GCAGCTGACAGAAAACATGTGCTTTGACTTGGGGAC | 206 a.u.
CGCTGGAAAACCGCCCACGTGGGAAGAAGCCCTGGC | 718 a.u.
CTTCTGTAAATTTTTCACGTGACGTGAAGCGCCCCG | 4390 a.u.
GAATGAGTTACTGGTCCCGTGAAGCGATTGACACAA | 303 a.u.
AGAACACAGTTTCGGCACGTGGAAGGTGTTTGGGAC | 1110 a.u.
GTCTTGTCTCATTGTCACCGTACTTTCCCCACTTCA | 86.5 a.u.
CTTCTGTAAATTTGCCTGGTGGGTGGACGCGCCCCG | 69.4 a.u.
CGTTAAAGGGACCAAAACGTGGGTAAGGGATGCCGC | 95.4 a.u.
CTGTTGGATATGCTTGTCGTGATGGAATACTGTTCT | 82.1 a.u.

Series 3
Target: Sal-like protein 4, full length isoform B (SALL4, Homo sapiens, UniProt Q9UJQ4-2, residues 1-616)
Method: universal PBM
Form: double-stranded DNA, one strand shown
Sample: in vitro
Concentration: not given
Setting: 8-mer, flanks averaged, mean of replicates
Reading: higher = stronger binding
Construct (chain): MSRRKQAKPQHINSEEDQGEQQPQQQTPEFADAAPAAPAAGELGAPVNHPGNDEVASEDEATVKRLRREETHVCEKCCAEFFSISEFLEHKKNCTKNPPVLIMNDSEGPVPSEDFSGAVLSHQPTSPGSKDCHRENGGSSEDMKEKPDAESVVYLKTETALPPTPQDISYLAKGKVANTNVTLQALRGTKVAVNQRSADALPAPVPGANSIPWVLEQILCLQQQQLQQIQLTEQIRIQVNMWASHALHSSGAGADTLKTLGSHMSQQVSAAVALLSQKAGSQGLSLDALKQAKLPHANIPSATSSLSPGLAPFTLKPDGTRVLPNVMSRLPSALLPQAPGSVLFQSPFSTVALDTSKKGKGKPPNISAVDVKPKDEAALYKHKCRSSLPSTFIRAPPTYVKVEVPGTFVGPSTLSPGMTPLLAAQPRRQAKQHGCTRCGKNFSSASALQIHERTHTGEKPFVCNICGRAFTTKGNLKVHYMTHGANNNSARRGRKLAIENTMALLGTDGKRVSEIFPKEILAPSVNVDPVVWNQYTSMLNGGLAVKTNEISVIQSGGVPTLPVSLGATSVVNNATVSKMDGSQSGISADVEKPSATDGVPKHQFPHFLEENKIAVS
Sequence | E-score
ACGGAAGC | -0.099
CTGGCTCC | -0.291
CTCCCCAA | -0.208
ATCCGTTC | -0.0385
AATCTGAG | -0.0148
TAGCGGAA | -0.157
CCCCTGGA | -0.354
ATGCACTG | 0.0171
AAGCGTGG | -0.285
GGATTTAC | 0.11
AGTAGGAG | -0.219
GCATCTAC | 0.0326
CTGCCTAC | 0.105

Other studies, line by line
Molecule | target | assay | test system | setting | scale | endpoint | value
PhoQ, residues 284 288 289 292 302 303 TLMATV | PhoP, residues 12 14 15 18 19 NQFFI (Escherichia coli, UniProt P23836) | Sort-seq, refers to: YFP reporter | E. coli | PhoQ-PhoP variant library, with: 10 µM Mg2+ | baseline: high Mg2+ state, higher = stronger signaling | fold induction | 13.9

Repeated from above (series 1):
Change | normalised enrichment score
VKAVRKLDFSDTM [S2K] | 4.83
VSAVRKLDTSDTM [F9T] | 0.0327
VSAVRKPDFSDTM [L7P] | -0.139
